Measured values of several laboratories.
Parts stem from different laboratories: compare values within a part only. Values joined by “and” are separate records of one study, mostly repeats; a detail may differ.
Sequence of UniProt Q9NYL2 (whole entry, looked up): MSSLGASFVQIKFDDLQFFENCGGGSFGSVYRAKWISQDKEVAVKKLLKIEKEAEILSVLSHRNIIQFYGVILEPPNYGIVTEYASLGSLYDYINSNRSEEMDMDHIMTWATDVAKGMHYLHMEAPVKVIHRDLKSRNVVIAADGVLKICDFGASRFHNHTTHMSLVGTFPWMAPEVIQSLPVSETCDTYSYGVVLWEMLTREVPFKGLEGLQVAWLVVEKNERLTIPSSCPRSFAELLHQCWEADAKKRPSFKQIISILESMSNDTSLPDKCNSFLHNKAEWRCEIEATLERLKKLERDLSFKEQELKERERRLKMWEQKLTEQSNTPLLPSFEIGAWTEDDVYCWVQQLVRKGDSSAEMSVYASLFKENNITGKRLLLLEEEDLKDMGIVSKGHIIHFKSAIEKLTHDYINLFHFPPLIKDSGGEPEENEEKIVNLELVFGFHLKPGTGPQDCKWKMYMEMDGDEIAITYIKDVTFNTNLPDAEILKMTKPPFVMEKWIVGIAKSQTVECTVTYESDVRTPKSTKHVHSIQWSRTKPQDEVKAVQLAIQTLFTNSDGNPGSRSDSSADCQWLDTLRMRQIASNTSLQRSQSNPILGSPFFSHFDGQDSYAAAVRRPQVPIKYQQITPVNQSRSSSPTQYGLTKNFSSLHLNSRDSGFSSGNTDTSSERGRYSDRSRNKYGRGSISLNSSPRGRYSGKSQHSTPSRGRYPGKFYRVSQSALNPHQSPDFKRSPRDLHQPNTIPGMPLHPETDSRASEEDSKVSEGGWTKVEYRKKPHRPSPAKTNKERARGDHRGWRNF
Sequence of UniProt P17948 (whole entry, looked up): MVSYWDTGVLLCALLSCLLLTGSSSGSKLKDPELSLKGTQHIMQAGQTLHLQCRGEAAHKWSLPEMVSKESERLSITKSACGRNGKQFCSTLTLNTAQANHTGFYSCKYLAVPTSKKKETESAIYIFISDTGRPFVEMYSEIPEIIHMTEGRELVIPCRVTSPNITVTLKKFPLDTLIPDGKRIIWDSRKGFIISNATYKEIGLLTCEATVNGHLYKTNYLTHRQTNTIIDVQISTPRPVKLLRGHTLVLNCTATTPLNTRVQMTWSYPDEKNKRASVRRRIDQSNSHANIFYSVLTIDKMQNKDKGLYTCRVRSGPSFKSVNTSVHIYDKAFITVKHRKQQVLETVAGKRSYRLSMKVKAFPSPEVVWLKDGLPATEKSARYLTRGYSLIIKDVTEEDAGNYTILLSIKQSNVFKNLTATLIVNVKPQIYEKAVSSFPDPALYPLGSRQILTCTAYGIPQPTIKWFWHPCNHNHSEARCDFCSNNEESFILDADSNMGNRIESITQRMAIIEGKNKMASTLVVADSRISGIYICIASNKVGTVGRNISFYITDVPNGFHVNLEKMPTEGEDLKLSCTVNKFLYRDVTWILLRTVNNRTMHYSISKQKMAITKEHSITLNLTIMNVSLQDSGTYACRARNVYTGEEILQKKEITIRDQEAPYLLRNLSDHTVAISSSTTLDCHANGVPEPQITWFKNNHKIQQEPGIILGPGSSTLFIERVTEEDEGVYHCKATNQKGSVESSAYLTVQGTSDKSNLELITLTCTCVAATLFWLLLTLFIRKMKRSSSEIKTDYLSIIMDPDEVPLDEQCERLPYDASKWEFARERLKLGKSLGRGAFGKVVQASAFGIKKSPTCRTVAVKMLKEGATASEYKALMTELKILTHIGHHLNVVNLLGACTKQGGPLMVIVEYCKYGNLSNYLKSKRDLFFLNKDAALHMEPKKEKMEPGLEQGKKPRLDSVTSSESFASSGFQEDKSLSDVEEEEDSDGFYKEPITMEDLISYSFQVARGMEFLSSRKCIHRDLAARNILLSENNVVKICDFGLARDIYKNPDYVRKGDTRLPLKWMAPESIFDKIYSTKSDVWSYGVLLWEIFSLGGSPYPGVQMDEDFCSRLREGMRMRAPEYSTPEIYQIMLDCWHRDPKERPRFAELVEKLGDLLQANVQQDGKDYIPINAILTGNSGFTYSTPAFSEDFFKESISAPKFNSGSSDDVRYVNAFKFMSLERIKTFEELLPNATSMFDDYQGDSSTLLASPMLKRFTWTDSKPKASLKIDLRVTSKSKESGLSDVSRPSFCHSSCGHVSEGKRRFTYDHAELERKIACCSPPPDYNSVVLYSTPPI
Sequence of UniProt Q06418 (whole entry, looked up): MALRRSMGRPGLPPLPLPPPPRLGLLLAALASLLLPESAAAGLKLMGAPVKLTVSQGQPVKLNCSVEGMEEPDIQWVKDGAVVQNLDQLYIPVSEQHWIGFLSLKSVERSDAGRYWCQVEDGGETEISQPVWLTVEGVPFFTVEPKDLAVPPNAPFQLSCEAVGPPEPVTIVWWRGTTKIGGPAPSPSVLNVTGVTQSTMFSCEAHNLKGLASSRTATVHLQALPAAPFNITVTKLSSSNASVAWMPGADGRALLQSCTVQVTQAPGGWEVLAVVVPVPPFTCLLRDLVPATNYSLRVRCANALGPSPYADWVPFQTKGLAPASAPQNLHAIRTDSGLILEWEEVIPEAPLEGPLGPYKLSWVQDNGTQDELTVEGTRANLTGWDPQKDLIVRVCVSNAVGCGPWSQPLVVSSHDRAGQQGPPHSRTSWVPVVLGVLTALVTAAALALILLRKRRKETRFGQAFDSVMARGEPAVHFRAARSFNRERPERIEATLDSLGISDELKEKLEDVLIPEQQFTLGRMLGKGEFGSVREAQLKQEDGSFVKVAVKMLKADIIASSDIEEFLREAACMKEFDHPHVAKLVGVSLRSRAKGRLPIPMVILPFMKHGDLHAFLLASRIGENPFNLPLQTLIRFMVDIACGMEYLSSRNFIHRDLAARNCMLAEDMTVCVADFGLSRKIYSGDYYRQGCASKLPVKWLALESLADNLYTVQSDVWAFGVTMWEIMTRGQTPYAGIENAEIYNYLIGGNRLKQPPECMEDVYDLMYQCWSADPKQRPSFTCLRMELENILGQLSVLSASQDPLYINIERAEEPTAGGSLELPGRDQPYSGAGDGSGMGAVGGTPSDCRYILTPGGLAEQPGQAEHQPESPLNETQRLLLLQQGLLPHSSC
Sequence of UniProt Q8N5S9 (whole entry, looked up): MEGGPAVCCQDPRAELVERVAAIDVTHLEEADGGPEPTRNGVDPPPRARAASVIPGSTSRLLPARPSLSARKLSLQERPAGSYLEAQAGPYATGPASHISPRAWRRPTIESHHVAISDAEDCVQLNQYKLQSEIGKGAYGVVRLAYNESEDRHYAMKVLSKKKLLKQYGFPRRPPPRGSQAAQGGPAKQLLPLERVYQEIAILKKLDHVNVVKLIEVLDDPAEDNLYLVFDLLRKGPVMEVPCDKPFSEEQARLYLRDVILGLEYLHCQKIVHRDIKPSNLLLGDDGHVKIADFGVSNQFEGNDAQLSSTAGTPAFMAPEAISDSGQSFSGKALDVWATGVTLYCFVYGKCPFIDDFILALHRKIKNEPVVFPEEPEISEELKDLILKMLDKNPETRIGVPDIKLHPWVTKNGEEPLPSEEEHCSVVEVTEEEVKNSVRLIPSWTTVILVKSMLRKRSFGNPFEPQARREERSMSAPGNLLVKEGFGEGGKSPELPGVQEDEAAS
Sequence of UniProt Q9UQM7 (whole entry, looked up): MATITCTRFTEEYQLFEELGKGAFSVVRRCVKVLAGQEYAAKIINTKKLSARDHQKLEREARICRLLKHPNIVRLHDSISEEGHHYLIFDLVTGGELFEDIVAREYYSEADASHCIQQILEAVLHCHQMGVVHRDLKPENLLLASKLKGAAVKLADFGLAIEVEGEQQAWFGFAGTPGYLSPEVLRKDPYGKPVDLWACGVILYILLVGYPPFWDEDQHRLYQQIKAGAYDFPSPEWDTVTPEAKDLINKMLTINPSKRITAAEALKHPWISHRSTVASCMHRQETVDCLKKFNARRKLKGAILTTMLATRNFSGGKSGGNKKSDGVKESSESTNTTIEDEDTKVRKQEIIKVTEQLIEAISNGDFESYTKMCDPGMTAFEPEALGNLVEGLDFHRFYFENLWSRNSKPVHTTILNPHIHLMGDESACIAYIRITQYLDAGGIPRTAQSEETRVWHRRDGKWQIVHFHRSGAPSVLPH
Sequence of UniProt O15146 (whole entry, looked up): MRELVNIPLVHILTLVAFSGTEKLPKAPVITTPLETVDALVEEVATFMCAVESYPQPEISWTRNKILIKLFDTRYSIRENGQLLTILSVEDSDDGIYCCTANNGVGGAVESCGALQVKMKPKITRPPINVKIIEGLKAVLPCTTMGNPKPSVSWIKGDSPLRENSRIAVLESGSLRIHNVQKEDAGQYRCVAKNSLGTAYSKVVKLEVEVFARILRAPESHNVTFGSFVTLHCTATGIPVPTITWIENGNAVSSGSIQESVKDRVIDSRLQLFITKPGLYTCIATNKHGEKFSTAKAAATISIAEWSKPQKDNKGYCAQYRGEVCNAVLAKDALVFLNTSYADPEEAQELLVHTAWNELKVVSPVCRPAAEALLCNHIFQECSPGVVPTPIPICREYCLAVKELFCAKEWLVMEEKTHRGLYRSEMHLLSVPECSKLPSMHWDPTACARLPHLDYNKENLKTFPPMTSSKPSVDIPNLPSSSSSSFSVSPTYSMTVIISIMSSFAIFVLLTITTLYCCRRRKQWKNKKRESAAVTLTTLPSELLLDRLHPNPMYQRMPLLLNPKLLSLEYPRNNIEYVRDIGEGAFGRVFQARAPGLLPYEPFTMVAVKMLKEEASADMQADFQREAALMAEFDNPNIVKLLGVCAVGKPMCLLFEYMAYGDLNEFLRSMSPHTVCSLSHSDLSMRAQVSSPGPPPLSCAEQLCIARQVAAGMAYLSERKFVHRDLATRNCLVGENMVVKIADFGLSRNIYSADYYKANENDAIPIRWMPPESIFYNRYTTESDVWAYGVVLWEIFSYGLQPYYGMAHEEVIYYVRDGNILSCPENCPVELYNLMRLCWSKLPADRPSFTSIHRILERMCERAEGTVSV

Set 1
Structure (SMILES): CNC(=O)[C@H](Cc1c[nH]c2ccccc12)NC(=O)[C@@H](CC(=O)NO)CC(C)C
target | IC50 [nM]
Stromelysin-1 (MMP3, Homo sapiens, UniProt P08254) | 18.7
Matrilysin (MMP7, Homo sapiens, UniProt P09237) | 8.16
ADAM17 (Homo sapiens, UniProt P78536) | 38.3
ADAM10 (Homo sapiens, UniProt O14672) | 755
MMP14 (Homo sapiens, UniProt P50281) | 0.743
Collagenase 3 (MMP13, Homo sapiens, UniProt P45452) | 0.12
MMP12 (Homo sapiens, UniProt P39900) | 0.198

Set 2 — technique: CCK-8
Compound: CC(C)S(=O)(=O)c1ccc2nccc(Nc3ccc4sc(C5CCCC5)nc4c3)c2c1.Cl
cell line | setting | survival
L929 RIPK3-/- reexpressing RIPK3 K51A | 6.25 µM, together with: zVAD | 99.4% and 97% and 100% and 95.2%
L929 RIPK3-/- reexpressing RIPK3 K51A | 12.5 µM | 98.9% and 98% and 92.1% and 95.6%
L929 RIPK3-/- reexpressing RIPK3 K51A/R69H | 6.25 µM, together with: zVAD | 102% and 85.7% and 95.3% and 97.9%
L929 RIPK3-/- reexpressing RIPK3 K51A | 25 µM | 91.2% and 109% and 93.1% and 105%
L929 RIPK3-/- reexpressing RIPK3 K51A | 50 µM | 74.6% and 74.8% and 69% and 68.2%
L929 RIPK3-/- reexpressing RIPK3 K51A/R69H | 25 µM, together with: zVAD | 69.9% and 97.1% and 67.8% and 95.3% and 67.5%

Set 3 — observed: enzyme activity; action: inhibitor; concentration: 0.5 µM; relative to: control
SMILES: COC[C@H]1OC(=O)c2coc3c2[C@@]1(C)C1=C(C3=O)[C@@H]2CCC(=O)[C@@]2(C)C[C@H]1OC(C)=O
target | remaining activity
CLK2 (Homo sapiens, UniProt P49760) | 88%
CAMKK1 (Homo sapiens, UniProt Q8N5S9) | 92.1%
SRPK1 (Homo sapiens, UniProt Q96SB4) | 94.4%
CAMK1 (Homo sapiens, UniProt Q14012) | 104%
FLT1 (Homo sapiens, UniProt P17948) | 85.9%
MAP3K20 (Homo sapiens, UniProt Q9NYL2) | 94.3%
Cyclin-dependent kinase 2, with cyclin E (CDK2, Homo sapiens, UniProt P24941) | 105%
TYRO3 (Homo sapiens, UniProt Q06418) | 107%
MUSK (Homo sapiens, UniProt O15146) | 94.8%
EPHA2 (Homo sapiens, UniProt P29317) | 100%
SGK2 (Homo sapiens, UniProt Q9HBY8) | 99%
PRKCZ (Homo sapiens, UniProt Q05513) | 99.2%
IGF1R (Homo sapiens, UniProt P08069) | 81.9%

Mixed results
Structure (SMILES) | target | test | setting | endpoint | result
COc1ccc2cc(OCC3(C(=O)O)CN(C(=O)c4ccc(F)cc4)C3)ccc2c1 | pknB (Mycobacterium tuberculosis, UniProt P9WI81) | cell-free assay, competition with immobilised ligand | 1 µM | remaining binding | 88%
N=C(N)NCCC[C@H](NC(=O)[C@@H]1CCCN1C(=O)[C@@H]1CSSC[C@H](N)C(=O)N[C@@H](Cc2ccc(O)cc2)C(=O)N[C@@H](Cc2ccccc2)C(=O)N[C@@H](CCC(N)=O)C(=O)N[C@@H](CC(N)=O)C(=O)N1)C(=O)NCC(N)=O | CAMK2A (Homo sapiens, UniProt Q9UQM7) | enzyme activity, inhibitor | 10 µM | inhibition | -9%
C[C@@]1(Cc2ccc(C#N)cc2)C(=O)N(c2cc(Cl)cc(Cl)c2)c2ncc(C(=O)NC3(c4nc(C5CCC5)no4)CC3)n21 | CDPK1 (Plasmodium falciparum, UniProt P62344) | cell-free assay, competition with immobilised ligand | 1 µM | remaining binding | 100%
